Experimental data collected from several papers.
Each numbered part is a random draw from the data of one study; scales do not carry over between parts. Changes are numbered by the printed parent chain.

Sample 1 — method: DHFR PCA, deep sequencing; matrix: yeast; together with: (+)-ABA 0.39 µM; reference: wild-type fitted maximum; reading: higher = stronger binding; measurement: relative binding score
Target: ABI1, truncated, D143A, DHFR fusion (Arabidopsis thaliana)
Notes: methotrexate growth selection, single substitutions
Starting sequence: PYL1, truncated, DHFR fusion (Arabidopsis thaliana); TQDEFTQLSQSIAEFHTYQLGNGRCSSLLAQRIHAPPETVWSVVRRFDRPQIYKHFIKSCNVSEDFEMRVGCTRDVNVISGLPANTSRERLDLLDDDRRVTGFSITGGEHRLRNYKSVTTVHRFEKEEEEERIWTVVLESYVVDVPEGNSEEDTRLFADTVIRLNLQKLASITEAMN
M68T: 10.9%
K116G: -3.57%
Q10T: 43.8%
V137N: 5.21%
Y141A: -4.22%
D3G: 23.3%
E64F: 9.05%
L166K: 0.0786%
L93T: 7.87%
H110L: 12.4%
T86I: 38.5%
T173L: -8.19%
Q31T: -7.68%
S171W: 9.25%
P37H: 2.62%
D96K: -9.61%
S150R: 5.9%
I79T: 23.1%
S26E: -8.9%

Sample 2 — method: RNA Bind-n-Seq; form: RNA; matrix: in vitro; tested at: 365 nM; reference: no-protein control; reading: higher = stronger binding; measurement: RBNS enrichment (R)
Target: RNA binding protein fox-1 homolog 2, RRM domain, GST-SBP tag (RBFOX2, Homo sapiens, UniProt O43251-10, residues 100-194)
Notes: natural RNA segment, single round, ends assumed
Residues (chain): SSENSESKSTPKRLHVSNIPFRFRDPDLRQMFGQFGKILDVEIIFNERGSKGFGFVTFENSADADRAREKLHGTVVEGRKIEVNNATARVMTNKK
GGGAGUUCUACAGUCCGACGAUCUCACCAGGGUUGACUGCCUUCAGGAAAUGCUGGCCCCAAAGGAUUUGAGGAAAACUUGACUGUCAGGCUAGCUGACUCUAGCUUUAUUUCUGCUGCCAGGAAGCACAGUUUGGAAUUCUCGGGUGCCAA: 0.413
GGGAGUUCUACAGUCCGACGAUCGAGUGUGAAUAUUCUUAUUUAAAGUAUAUUUUUACAUUAUGCAAAUGAACUUUAACAUUUUAGUCCAAUGUGACUAGUCAAAUAAACCAAAUAAACUGAGUAUUUUGUCUUGGAAUUCUCGGGUGCCAA: 0.742
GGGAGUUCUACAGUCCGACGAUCAUACUGCUCUACUGCACUUAGACUCUCCACUCACAGAUAAGUCUUGUCUGUUAGUAGUGCUGUAGAUUAAGUCUUUCCAAAGCACCUAGGCAGUGCACCUAUUCUGUAGUUGGAAUUCUCGGGUGCCAA: 0.303
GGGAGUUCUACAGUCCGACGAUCUUCUAUUAAAGAUUCUAGUGAAACAUAAAGUUGUAUUGUGUUCACCUUAAAACUUAUUGGAUUAUGAAUGUUAUCAGAGUACUGAAUUGUAUCAAUUUGUUUGCAGUUAAUGGAAUUCUCGGGUGCCAA: 0.989
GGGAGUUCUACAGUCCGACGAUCACAAGUGGGCACCUGCACUACCACUUUUUAGAGGAAAUUCACUCCCUCGUAAGCAUUGGAAGGUCAAAUUAUUUUGAAGUGAUUUUUUUAAAAAAAAGUCUUCUGUUUAUUGGAAUUCUCGGGUGCCAA: 0.575
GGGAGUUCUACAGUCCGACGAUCGGUGUUCAGCUUCGACAAAGAUGACGUUUUCUGAGAACUUAGUCCGUCCGUACCCAGCUAACCUCUCUCCCAUGCUGGAUGAAGAAGUUCUUAACUUCCCAAGCUGCAGAUGGAAUUCUCGGGUGCCAA: 0.216
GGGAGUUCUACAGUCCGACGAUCUGUUUUGCUGGCACAUUAAUCAUAGAUAAAGAAAGAUUGAUGGACUUAGCCCUCAAAUUUCAGUAUCUAUACAGUACUAGACCAUGCAUUCUUAAAAUAUUAGAUACCAGUGGAAUUCUCGGGUGCCAA: 0.273
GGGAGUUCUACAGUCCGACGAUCGUUAGGUUGAACUUGGGAAAGCAAGCCCAAGUUCAACCUAACUCCUGCUGUAAAAUGGAGAGAACUGUAGCAAAUGAACAGCCCUUUAAGAUUACCUAGCUGCCUCUCUGUGGAAUUCUCGGGUGCCAA: 0.25
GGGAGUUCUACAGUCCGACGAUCCUGUUUGUCAUAUCAGAAGCCAUGGAAUAAUAAACCCAGGGGAAUCCAGAAACCACACUUAGUGGUAACCCUGGUGCUCUCUAGAAUCUCCAAAUGAGCUGCUAUAAAACUGGAAUUCUCGGGUGCCAA: 0.38
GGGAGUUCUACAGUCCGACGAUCUACUUAUGUAUGGAAGAUUACUGCUCUGAGUGAAAUAAAAGUUAUUAGUGCGAGGCAAACAUAACUCAUUUGAGGAUAAAGUUUGUGUUGGAUAUGUGGUUCCUGAUGCAUGGAAUUCUCGGGUGCCAA: 12.4
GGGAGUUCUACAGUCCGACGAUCAUAUGUGUGUGUAGGGGGAGGAUAAGAACUGAAUUAUUUGAAACAGGUUAUUAUUUGAAACUGUAUUACUCUACUCAGUAUUUUGGCCAGGUCCCAGUCCCGGGUUGCAGUGGAAUUCUCGGGUGCCAA: 0.907
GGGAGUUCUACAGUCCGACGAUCGUUAAGAGCUGAGCACACCACAGGAAAGGAGGGAGGAUGCUGUGUGAGAGCCAUGCUGUCAGGAGCAAGCUUGCUGCUCCUGUGCUGCCCUGGCCCUGGCCUUGCUUGCCUGGAAUUCUCGGGUGCCAA: 0.784

Sample 3 — target: CCNB2, cyclin fold, Cln2 fusion (human); method: yeast growth competition, sequencing; matrix: yeast; notes: weak parent motif; reference: not given; reading: higher = stronger binding; measurement: normalised enrichment score
Starting sequence: PPP1R3F docking peptide (human); VAPRRVLFADEAL; partner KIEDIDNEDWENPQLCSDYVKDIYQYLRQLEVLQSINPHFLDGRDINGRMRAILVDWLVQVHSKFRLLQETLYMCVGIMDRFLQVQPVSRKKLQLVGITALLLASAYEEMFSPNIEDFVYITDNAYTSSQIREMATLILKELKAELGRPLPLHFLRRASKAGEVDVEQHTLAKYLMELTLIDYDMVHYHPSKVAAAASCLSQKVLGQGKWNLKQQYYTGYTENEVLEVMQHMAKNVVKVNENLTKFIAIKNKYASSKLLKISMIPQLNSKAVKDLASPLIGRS
V6A: 0.0125
F8L: 0.633
L7A: 0.214
R5A: 0.236
R5A L7A: -0.123
V1A: 0.163
R5K F8L: 0.395
R4A: 0.276

Sample 4 — method: protein binding microarray; form: double-stranded DNA, one strand shown; matrix: in vitro; tested at: not given; reference: not given; reading: higher = stronger binding; measurement: E-score
Target: Histone acetyltransferase KAT6A, both winged helices, GST fusion (KAT6A, Homo sapiens, UniProt Q92794, residues 1-181)
Notes: 8-mer, flanks averaged, mean of 2 arrays, mostly near background
Target sequence (chain): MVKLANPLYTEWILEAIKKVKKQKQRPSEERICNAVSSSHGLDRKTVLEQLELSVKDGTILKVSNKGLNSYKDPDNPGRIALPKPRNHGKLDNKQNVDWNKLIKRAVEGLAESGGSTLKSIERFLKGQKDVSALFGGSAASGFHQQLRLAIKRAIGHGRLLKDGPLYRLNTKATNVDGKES
CACCAAGG: -0.107
ACTTTTCT: -0.267
AACGACCG: 0.0427
ACTGTTCT: -0.129
CTAGCCGA: 0.0691
CCTAGCAA: -0.115
ATAGGGCA: -0.218
TGCTTTAA: -0.0453
AAACGCCA: -0.0818
CAAACAAC: -0.00697
AAGTATAG: -0.0999
CGGAGACA: 0.0941
GCTAGAGA: -0.0761
AAGAGCAT: -0.17
ACAGGTGA: -0.166
AGGTTTGG: -0.13
CAATCGAG: -0.108
ACCCGCCG: 0.311
ACGAGCCA: -0.277

Sample 5 — target: ATF7, bZIP domain (human); method: DHFR protein complementation; matrix: yeast; reference: wild-type JUN-FOS pair; reading: higher = stronger binding; measurement: binding fitness
Notes: single substitutions, most at no-binding floor
Starting sequence: JUN, bZIP domain (human); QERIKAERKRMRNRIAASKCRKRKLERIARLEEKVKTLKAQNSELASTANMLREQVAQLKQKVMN; partner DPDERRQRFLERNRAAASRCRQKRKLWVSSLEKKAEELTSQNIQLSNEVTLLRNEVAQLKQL
V35R: -1.36 natural log
Q55P: -1.44 natural log
E44T: -1.11 natural log
A29E: -0.961 natural log
M51S: -0.892 natural log
A57Q: -1.02 natural log
K39P: -1.48 natural log
A40E: -0.839 natural log
T37M: -0.585 natural log
A46D: -1.25 natural log
E54R: -1.04 natural log
I28S: -1.14 natural log
S43T: -0.749 natural log
K34L: -0.899 natural log
A40R: -0.84 natural log
L45H: -1.43 natural log
L31H: -1.63 natural log
Q41F: -1.45 natural log
A49Y: -1.32 natural log
L52N: -1.38 natural log

Repeated from above (sample 5):
A29E: -0.961 natural log
A49Y: -1.32 natural log
V35R: -1.36 natural log
E54R: -1.04 natural log
M51S: -0.892 natural log
Q41F: -1.45 natural log
A40E: -0.839 natural log
E44T: -1.11 natural log
L45H: -1.43 natural log
S43T: -0.749 natural log
K39P: -1.48 natural log
